# Results gathered from unrelated publications.
# Each numbered part is a random draw from the data of one study; scales do not carry over between parts.

# Series 1 — technique: RNA Bind-n-Seq; molecule type: RNA; matrix: in vitro; tested at: 200 nM; notes: whole 134-nt RNA, ends assumed; together with: 150 mM LiCl; baseline: input library; direction: higher = stronger binding; each molecule: 7-deaza-guanosine replaces G
# Target: Fragile X messenger ribonucleoprotein 1, C-terminal low-complexity region (Fmr1, Mus musculus, UniProt P35922)
Oligonucleotide,log2 enrichment
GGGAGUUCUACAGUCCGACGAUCGUCCUGUGCUACACAUCGUAUGUACCGAAUCGGGAAAGGGUUUUUGGGUUUUUUUGGGAAAGUAUUAUGUUACGCCGUUCGGAUCUGCACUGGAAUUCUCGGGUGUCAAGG,-1.96
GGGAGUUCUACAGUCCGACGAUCUCAAGUCCUGUGCUACACAUCGUAUGUACCGAAUCGGGGAAGGGAAGGGAAGGGAAAGUAUUAUGUUACGCCGUUCGGAUCUGCACUUCCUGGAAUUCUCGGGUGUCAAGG,-0.77
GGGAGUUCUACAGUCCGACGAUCUGGCCCUGGUGGCAUGCGGGGAGGCAGAGGUGGCCUCAUGGAUCGUGGUGGUCCCGGUGGAAUGUUCAGAGGUGGCCGUGGUGGAGACAGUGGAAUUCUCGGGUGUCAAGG,-0.518
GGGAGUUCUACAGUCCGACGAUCCACAGACAACACGCACCCACACAGACACAGAGGGAAGGGGUUGGGAUGGGGACAUGGUGCACAGCAGGGCGGGGUAGGACCCCAGCCCCUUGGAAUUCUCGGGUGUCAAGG,-0.487
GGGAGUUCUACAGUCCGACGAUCCUCAAGUCCUGUGCUACACAUCGUAUGUACCGAAUCGGUGGAAAAAAAGGAGGAAAGUAUUAUGUUACGCCGUUCGGAUCUGCACUUCCAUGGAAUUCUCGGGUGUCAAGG,0.164
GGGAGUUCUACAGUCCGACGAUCCAAGUCCUGUGCUACACAUCGUAUGUACCGAAUCGGAAAGGGGAAAGGAAAGGGGAAAGUAUUAUGUUACGCCGUUCGGAUCUGCACUUCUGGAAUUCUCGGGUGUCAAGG,-0.0576
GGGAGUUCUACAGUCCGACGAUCUGGCCCUGGUGGCAUGCGGGGAGGAAGAGGUGGACUCAUGGAUCGUGGUGGUCCCGGUGGAAUGUUCAGAGGUGGCCGUGGUGGAGACAGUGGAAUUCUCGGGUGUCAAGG,0.672
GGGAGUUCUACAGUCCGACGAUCUCAAGUCCUGUGCUACACAUCGUAUGUACCGAAUCGGAAAAAGGAGGUUUUUGGAAAGUAUUAUGUUACGCCGUUCGGAUCUGCACUUCCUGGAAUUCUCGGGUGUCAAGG,-0.853

# Series 2 — technique: RNA Bind-n-Seq; molecule type: RNA; matrix: in vitro; tested at: 365 nM; baseline: no-protein control; direction: higher = stronger binding
# Target: RNA binding protein fox-1 homolog 2, RRM domain, GST-SBP tag (RBFOX2, Homo sapiens, UniProt O43251-10, residues 100-194)
# Notes: natural RNA segment, single round, ends assumed
# Construct (chain): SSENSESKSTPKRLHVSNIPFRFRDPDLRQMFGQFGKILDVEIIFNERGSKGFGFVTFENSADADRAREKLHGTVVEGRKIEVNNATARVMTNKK
Oligonucleotide,RBNS enrichment (R)
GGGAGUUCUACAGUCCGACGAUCGUGUGUCUGUGUUGACCCUGGGACAAGUGUGAGACAGGAAGAGUGUGGGGAGUCUGGGCUCGGUAGUAACUCUGGGAUAUUUCAAGGAUGGCUUUCUUUUUGACUGUGCUUGGAAUUCUCGGGUGCCAA,1.77
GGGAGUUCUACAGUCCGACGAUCCCACAUUAGAGGCUGGGAACAGCCAGGAUGUUGCCAAAGCCCCUGGCCUUUCCUGUACACGCCUGUGACUGGCAGCCACAUGGUUUCUGCUUAUUAACGUGAGCCUCCCUUGGAAUUCUCGGGUGCCAA,0.322
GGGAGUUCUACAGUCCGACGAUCGGUGUUGGCAAUGGUCCUGGAGGGAAUGGCCUGGGCGUAGGCUGCCUCCAGCUGCCCGUAACCACCGAUCUGGUCAAAAGCUGGAGGGGUCAGGGUGGAACAGGGACAGUUGGAAUUCUCGGGUGCCAA,0.948
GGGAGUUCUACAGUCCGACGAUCCACCUCCUAUCCCAUUUGAUCUCACGUAAGCUCCAUUCUCCCACACAACUCUGGGCUCUGUUCAGCACUGUCUUCUGUCAGAGGUGCCUUUUCACAAGUAUGGCGGCUUAUGGAAUUCUCGGGUGCCAA,0.896
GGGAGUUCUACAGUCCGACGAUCUAAUUUUCAUGGCUUUGCUUGAUCUGUUGAUGCUUUCUCUCAUCAAGACUUUGCAGCAUUUUAGCCAGGCAGUAUUUACUCAUUAUUAGGAAAAUCAAGAUGUGGCUGAAUGGAAUUCUCGGGUGCCAA,0.294
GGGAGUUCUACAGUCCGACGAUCCAUUGUCCCCUGCCUCCUCUGUAAUUUUUGCCCCUUCCAGGGUACGGAAUGUGUCAGUGCAUUUUCUCCUUGCUGAGAGUCUCAGCUCCAAUCUCUUCAUAAUUUUGUUCUGGAAUUCUCGGGUGCCAA,0.659
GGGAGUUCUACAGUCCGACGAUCCAGGGAAGUCAGACGGUGGAAGAUCUGCUGCAACCAUUAUCUCUGUUCUUUGUGUAUCAUGCAUUUAAAAUGAGAUGGAAAAGCAUUAGCAUACUGUGUAAAUAUGGACCUGGAAUUCUCGGGUGCCAA,1.17
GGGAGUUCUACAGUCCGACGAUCGGGAAAAUGGCCUUUUUAAACCCUGUCAAGCCCAUGAUGGAAGACACCACCUCUGCCAUGCCCUGUAUCCCGAGAGCUGCACACACUGCUUCCAGAUUGCUGGUUCCAGAUGGAAUUCUCGGGUGCCAA,0.446
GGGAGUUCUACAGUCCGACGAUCGAAAUUUGAAGUCUUUAUAACUUAAUUAUGUUUAAUAAAAAAUAGAGUCUGCCUCGUACUACAGAUGAACUCAUUUGUAUAUUGCAGACAGACCCAAAGUGGCACUGAAUUGGAAUUCUCGGGUGCCAA,0.52

# Series 3 — technique: protein-binding microarray; molecule type: double-stranded DNA, one strand shown; matrix: in vitro; tested at: 2540 nM top; notes: 60-bp whole probe; together with: salmon DNA 0.4 mg/ml; baseline: random background probes; direction: higher = stronger binding; constant ends, left off below: GCCTAGCAC … GTCTTGATTCGCTTGACGCTGCTG
# Target: Interferon regulatory factor 3, full length, phosphomimetic (IRF3, Homo sapiens, UniProt Q14653, residues 1-427, S386D/S396D/S398D/S402D/T404D/S405D)
# Target sequence (chain): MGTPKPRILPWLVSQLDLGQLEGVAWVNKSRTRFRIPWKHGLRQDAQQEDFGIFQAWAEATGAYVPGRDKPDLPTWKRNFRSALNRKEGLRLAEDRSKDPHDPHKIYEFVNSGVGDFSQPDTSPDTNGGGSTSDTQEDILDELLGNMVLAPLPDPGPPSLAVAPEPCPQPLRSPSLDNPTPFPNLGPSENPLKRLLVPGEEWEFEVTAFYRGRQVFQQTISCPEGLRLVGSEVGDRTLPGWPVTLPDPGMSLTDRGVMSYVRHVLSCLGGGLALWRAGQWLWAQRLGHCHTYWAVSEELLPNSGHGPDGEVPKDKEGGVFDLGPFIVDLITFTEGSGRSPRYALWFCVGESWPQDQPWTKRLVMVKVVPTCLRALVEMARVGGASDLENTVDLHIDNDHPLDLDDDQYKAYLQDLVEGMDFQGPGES
Oligonucleotide,fitted relative affinity [z-score]
TCATGTTTTAAATTCTAACTGTGCTAG,0.762
TCAGTCCTCCTGACTGGGACTGTGCTA,-0.0899
CTAGGTTTCGACTATCGGTTAGTGCTA,2.55
GATGGACTGGGGTTTCGGGACGTGCTA,0.371
TTACATCTCAGTCTCGATTAGTGCTAG,0.832
GACGGTTTCAGTTCCGAGACGTGCTAG,6.02
TTAGGACTGGACACTGGGTGAGTGCTA,-0.725
GACGGTTTCGGTATCGGGACGTGCTAG,8.2
GTAGGTTCCCTTTTCCTTTAGTGCTAG,7.39
TTAGAACTGAGTATCGATTGGTGCTAG,-0.146
GACGGACTGGGGACTGGCGACGTGCTA,-1.01
TCCACTTTGACTTAAGAGGCGTGCTAG,0.387
TTAGATTTCCGTTTCGATTAGTGCTAG,6.09
TAGGCTCTGTGCTTTCCTGATGTGCTA,-0.464
TTAGGTATCGTCACTGGGTTAGTGCTA,-0.24
TAAGGTATCGACACTGGGTTAGTGCTA,0.00284
GCCGATTTCAGACTGGAGACGTGCTAG,1.91
GACGCTTCCAGTTTCGAGACGTGCTAG,3
GACGGACTGCTTCTCGTGACGTGCTAG,-0.283
GACGGTATCCCACTGCTGACGTGCTAG,2.32
GACGGTATCCGTTTCCTGACGTGCTAG,6.13
CTTTCTTTACTTCACTCTCTGTGCTAG,5.56
GACGGACTCGACTTTCGGGACGTGCTA,0.326
AGACGAATCATATCAAAATTGTGCTAG,0.453
CAAAGAAAAAGAAAAAAAAAGGTGCTA,0.069

# Series 4 — technique: RNA Bind-n-Seq; molecule type: RNA; matrix: in vitro; tested at: not given; baseline: input RNA pool; direction: higher = stronger binding
# Target: RING finger protein unkempt homolog, zinc fingers 1-6, GST-SBP tag (UNK, Homo sapiens, UniProt Q9C0B0, residues 30-357)
# UniProt Q9C0B0, sequence (30-357, looked up): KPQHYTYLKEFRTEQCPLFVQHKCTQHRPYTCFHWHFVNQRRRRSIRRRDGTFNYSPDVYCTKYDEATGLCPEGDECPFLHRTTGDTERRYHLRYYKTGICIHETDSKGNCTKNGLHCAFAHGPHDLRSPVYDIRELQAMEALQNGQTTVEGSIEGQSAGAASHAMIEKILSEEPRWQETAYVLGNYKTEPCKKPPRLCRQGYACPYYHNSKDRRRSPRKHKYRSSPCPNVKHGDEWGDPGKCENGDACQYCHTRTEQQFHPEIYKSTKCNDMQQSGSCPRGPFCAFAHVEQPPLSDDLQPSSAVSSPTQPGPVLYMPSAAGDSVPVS
# Notes: RNA with constant flanks, human-mouse chimeric sites, ends assumed
Oligonucleotide,bound/input enrichment [ratio]
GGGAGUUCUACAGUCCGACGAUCACUCAGAGAUCCACCUCAAUUGAAGUGGGGAGUAAAGGUGUGGCCACCACACCUAACUUGAUGGAUAUAUAUUUUUUUUAAUAUGAAUCUUCCUGUUCGUCCAGGGAGCAAGAACGGGUUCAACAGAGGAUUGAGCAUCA,0.494
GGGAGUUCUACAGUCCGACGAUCCUUAUGGCUGCAGAAACAGGAAGUGGAAAAACUGGUGCAUUUAGUAUUCCCGUUAUCCAGAUAGUUUAUGAAACUCUGAAAGACCAACAGGAAGGAAAGAAAGGGAAAACAACUAUUAAACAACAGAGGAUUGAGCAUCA,0.971
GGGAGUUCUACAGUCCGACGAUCAAAGAGUGGAUAGAGUGUGCACACGGGAUCGGUGGGACCCGGGCGAAAAAGGAGUGCAAGAUAGAAUUCGAUGACUUCGAAGAGUGCUUGCUUCGGUACAAAACGAUGAGGCGAAUGCAUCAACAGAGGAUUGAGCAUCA,0.34
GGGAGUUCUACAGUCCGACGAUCCGGAAGUUCUUGAUUUAUCAUUUUUCUCUUUUCUUUCAGAUCGUCAGGAAAAGCCUAAAGAUUAGGUUGUAAGAAAAACAGAAGCCAUGUUUCGAAGACCUGUGUUACAGGUAUUUCGUCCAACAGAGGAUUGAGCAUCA,0.135
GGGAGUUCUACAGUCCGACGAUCAAAGAACCUCUCUCUGAUGAAGAUGAGGAAGACAAUGAUGAUGUUGAACCCAUUUCUGAAUUUAGAUUUGUGCCUAGUGAUAAGUCAGCAUUGGAGGCGAUGUUCACAGCAAUGUGUGAGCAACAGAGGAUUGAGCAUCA,1.48
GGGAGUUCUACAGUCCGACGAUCAAAGAACUACUGAGGCAAGGCAGCAAAUUUAGAAGAAACAUUUCAACAAUAUUGAUAGAGUUAGGAUUCCAAAUUAAAAAGAAAACUAAAAGAUUGUACAUCAACAAAGCCAAUGUGUGGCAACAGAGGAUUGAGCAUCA,17.1
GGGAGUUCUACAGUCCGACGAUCCUAGCAGUCCAGCAGCUCCUUGAAAUAUUGAGACAAACACUCCACACACAGGGAAGGCGAUAACAUUGUACAUUGGUUUACAUUUUUUCCCCCUGUGGAUUUUUCUAGAGGUCAUAGUGCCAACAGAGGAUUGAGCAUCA,0.798
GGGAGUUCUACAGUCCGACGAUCUUACCCGAGAACGAGGAUGAAUUGGAGAGCACCAAUAGGCGCUACACCAAGAGGGACUGCAGCACUUUCCUCAGAACUAGUGAGACGGGCAUCGUGGACCAGGUCAUGGUCACUCUCAACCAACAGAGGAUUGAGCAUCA,0.2
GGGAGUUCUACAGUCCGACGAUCCUGUGACCACAAGAUCCUACCUGAGUGGCAGCUGAAGCACUUUUCUUCCCCUUCCCUGAACCCCCCCCCACUGCCCCCCCAUCCCCCAGUGUCGGCUGAGAUGUUGCCUCUGCACGGUUCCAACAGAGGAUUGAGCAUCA,1.32
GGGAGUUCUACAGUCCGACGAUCCCUCUGCCCCGCUCUGCAGCCUGGGGACUUUUGGCAAGGACCAGAAUCCAGCUUUCUUUUAAAACUCUCAGUGUAACUGUAUCCCGUGACAUUUCAUUUUUUUUAAAUAGUGUAUUUUUUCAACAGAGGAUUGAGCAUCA,3.54
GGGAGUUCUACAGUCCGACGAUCAAAGAACUUGCUGAUGAUGAAGAUGAGGAAGACAAUGAUGAUGUUGAACCCAUUUCUGAAUUUCGAUUUGUGCCCAGUGAUAAGUCAGCAUUGGAGGCGAUGUUCACAGCAAUGUGUGAGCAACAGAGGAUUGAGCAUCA,0.327

# Excerpt of the above (series 3):
Oligonucleotide,fitted relative affinity [z-score]
TTAGGTATCGTCACTGGGTTAGTGCTA,-0.24
TCCACTTTGACTTAAGAGGCGTGCTAG,0.387
CTAGGTTTCGACTATCGGTTAGTGCTA,2.55
TAAGGTATCGACACTGGGTTAGTGCTA,0.00284
GACGGTATCCGTTTCCTGACGTGCTAG,6.13
CTTTCTTTACTTCACTCTCTGTGCTAG,5.56
TTAGATTTCCGTTTCGATTAGTGCTAG,6.09
